{"data": "Measurements of several laboratories", "organism": "Staphylococcus aureus", "note": "Each line is one published result; not all experiments were run side by side. ± gives the spread as reported."}
{"SMILES": "Cc1cc([N+](=O)[O-])ccc1NC(=O)CSc1nc2ccccc2c(=O)n1-c1ccc(S(N)(=O)=O)cc1", "assay": "microbial growth, well diffusion", "test system": "ATCC29213", "setting": "500 µg/mL, 24 h", "inhibition zone [mm]": 35}
{"SMILES": "Cc1cc(O)c2c(c1)C(=O)c1cc3oc(=O)cc(-c4ccc(Cl)cc4)c3c(O)c1C2=O", "assay": "microbial growth, disc diffusion", "test system": "MTCC96", "setting": "100 µg/disc", "inhibition zone [mm]": 8}
{"SMILES": "CCc1ccc(NC(=O)CSc2nc3ccccc3c(=O)n2-c2ccc(S(N)(=O)=O)cc2)cc1", "assay": "microbial growth, well diffusion", "test system": "ATCC29213", "setting": "500 µg/mL, 24 h", "inhibition zone [mm]": 26}
{"SMILES": "Cc1c2c(cc3oc(=O)cc(-c4ccc(O)cc4)c13)C(=O)c1cccc(O)c1C2=O", "assay": "microbial growth, disc diffusion", "test system": "MTCC96", "setting": "100 µg/disc", "inhibition zone [mm]": 8}
{"SMILES": "CCOc1ccc(NC(=O)CSc2nc3ccccc3c(=O)n2-c2ccc(S(N)(=O)=O)cc2)cc1", "assay": "microbial growth, well diffusion", "test system": "MRSA", "setting": "500 µg/mL, 24 h", "inhibition zone [mm]": 28}
{"SMILES": "C=C1CC(OC(=O)C(C)(O)CCl)C2C(=C)C(=O)OC2C2C1CC(O)C2(O)CCl (stereo not drawn)", "setting": "concentration not given", "inhibition zone [mm]": "11 ± 0.43"}
{"SMILES": "O=C1c2ccccc2C(=O)c2c1ccc1c2C(C(=O)Nc2ccccc2Cl)C(=O)C1c1ccccc1 (stereo not drawn)", "assay": "microbial growth, disc diffusion", "test system": "MTCC96", "setting": "100 µg/mL, 24 h", "inhibition zone [mm]": 12}
{"SMILES": "COc1c2c(cc3oc(=O)cc(-c4ccc(Cl)cc4)c13)C(=O)c1cc(C)cc(O)c1C2=O", "assay": "microbial growth, disc diffusion", "test system": "MTCC96", "setting": "100 µg/disc", "inhibition zone [mm]": 13}
{"SMILES": "O=C1c2ccccc2C(=O)c2c1ccc1c2C(C(=O)Nc2ccccc2)C(=O)C1c1ccccc1 (stereo not drawn)", "assay": "microbial growth, disc diffusion", "test system": "MTCC96", "setting": "100 µg/mL, 24 h", "inhibition zone [mm]": 11}
{"SMILES": "NS(=O)(=O)c1ccc(-n2c(SCC(=O)Nc3ccc([N+](=O)[O-])cc3[N+](=O)[O-])nc3ccccc3c2=O)cc1", "assay": "microbial growth, well diffusion", "test system": "ATCC29213", "setting": "500 µg/mL, 24 h", "inhibition zone [mm]": 26}
{"SMILES": "Cc1cc(O)c2c(c1)C(=O)c1cc3oc(=O)cc(-c4ccc(O)cc4)c3c(O)c1C2=O", "assay": "microbial growth, disc diffusion", "test system": "MTCC96", "setting": "100 µg/disc", "inhibition zone [mm]": 8}
{"SMILES": "O=C1c2ccccc2C(=O)c2c1ccc1c2C(C(=O)Nc2ccc(Cl)cc2)C(=O)C1c1ccccc1 (stereo not drawn)", "assay": "microbial growth, disc diffusion", "test system": "MTCC96", "setting": "100 µg/mL, 24 h", "inhibition zone [mm]": 12}
{"note": "Repeated from above:"}
{"SMILES": "Cc1c2c(cc3oc(=O)cc(-c4ccc(O)cc4)c13)C(=O)c1cccc(O)c1C2=O", "assay": "microbial growth, disc diffusion", "test system": "MTCC96", "setting": "100 µg/disc", "inhibition zone [mm]": 8}
{"SMILES": "COc1c2c(cc3oc(=O)cc(-c4ccc(Cl)cc4)c13)C(=O)c1cc(C)cc(O)c1C2=O", "assay": "microbial growth, disc diffusion", "test system": "MTCC96", "setting": "100 µg/disc", "inhibition zone [mm]": 13}
